Experimental data of several laboratories.
Protocols differ between the studies behind these lines. ± gives the spread as reported.

Compound | assay | system | conditions | scale | endpoint | result
COc1ccc2c(c1)c(CC(=O)OCOC(C)=O)c(C)n2C(=O)c1ccc(Cl)cc1 | hot plate test | BALB/c mice | 75 mg/kg, 90 min | – | latency of nociceptive response | 16.2 ± 1.4 s
CCCC[C@H](NC(=O)[C@@H](NC(=O)[C@H](CC(=O)O)NC(=O)[C@H](CCC(N)=O)NC(=O)[C@H](CC(C)C)NC(=O)[C@H](CC(C)C)NC(=O)[C@H](CCCN)NC(=O)[C@H](CCCNC(=N)N)NC(=O)[C@H](C)NC(=O)[C@H](CO)NC(=O)[C@H](CC(C)C)NC(=O)[C@H](CCC(N)=O)NC(=O)[C@H](CC)NC(=O)[C@H](CC(C)C)NC(=O)[C@@H](NC(=O)[C@H](CCCN)NC(=O)[C@H](CCCNC(=N)N)NC(=O)[C@H](Cc1ccc(O)cc1)NC(=O)[C@H](CO)NC(=O)[C@H](CCC(N)=O)NC(=O)[C@@H](NC(=O)[C@H](Cc1ccccc1)NC(=O)[C@@H](NC(=O)[C@H](C)NC(=O)[C@H](CC(=O)O)NC(=O)[C@@H](C)NC(=O)[C@H](Cc1ccc(O)cc1)NC)[C@@H](C)CC)[C@@H](C)O)C(C)C)[C@@H](C)CC)C(=O)N[C@@H](CC(=O)O)C(=O)N[C@@H](CCCNC(=N)N)C(=O)NCC | GH release | rat, male, serum | subcutaneous, 3 µg/kg, 15 min | relative to: reference GHRH agonist JI-38 | relative potency | 1.15
CCCCCCCCCn1cc(C(N)(CO)CO)nn1 | – | APP/PS1 mouse | dose not given | relative to: PBS | microglia around Aβ plaques | increased
COc1ccc(/C=C/c2cc(O)cc(O)c2)cc1O | – | – | concentration not given | – | initial DPPH scavenging rate | 1.27 µmol/L/s
CC(=N)N(C)c1ccc(C(=O)Nc2ccc(Cl)cc2C(=O)Nc2ccc(Cl)cn2)cc1 | – | human plasma | – | – | concentration doubling prothrombin time | 0.12 ± 0.03 µM
Sc1nnc(-c2cc(Cl)ccc2Cl)o1 | nitric oxide scavenging | – | – | – | IC50 | 101 ± 4.1 µM
CSCC[C@H](NC(=O)[C@H](CO)NC(=O)[C@@H](N)CO)C(=O)N[C@@H](CCCCN)C(=O)N[C@@H](CC(C)C)C(=O)N[C@@H](CO)C(=O)N[C@@H](Cc1ccccc1)C(=O)N[C@@H](CCCNC(=N)N)C(=O)N[C@@H](C)C(=O)N[C@@H](CCCNC(=N)N)C(=O)N[C@@H](C)C(=O)N[C@@H](Cc1ccc(O)cc1)C(=O)NCC(=O)N[C@@H](Cc1ccccc1)C(=O)N[C@@H](CCCNC(=N)N)C(=O)NCC(=O)N1CCC[C@H]1C(=O)NCC(=O)N1CCC[C@H]1C(=O)N[C@@H](CCC(N)=O)C(=O)N[C@@H](CC(C)C)C(=O)O | glucose tolerance | DIO mouse | 0.1 to 1.0 µg/g | – | ED50 | ~0.41 µg/g body weight
CCCC[C@H](NC(=O)[C@@H](NC(=O)[C@H](CC(=O)O)NC(=O)[C@H](CCC(N)=O)NC(=O)[C@H](CC(C)C)NC(=O)[C@H](CC(C)C)NC(=O)[C@H](CCCN)NC(=O)[C@H](CCCNC(=N)N)NC(=O)[C@H](C)NC(=O)[C@H](CO)NC(=O)[C@H](CC(C)C)NC(=O)[C@H](CCC(N)=O)NC(=O)[C@H](CC)NC(=O)[C@H](CC(C)C)NC(=O)[C@@H](NC(=O)[C@H](CCCN)NC(=O)[C@H](CCCNC(=N)N)NC(=O)[C@H](Cc1ccc(O)cc1)NC(=O)[C@H](CO)NC(=O)[C@H](CC(N)=O)NC(=O)[C@@H](NC(=O)[C@H](Cc1c(F)c(F)c(F)c(F)c1F)NC(=O)[C@@H](NC(=O)[C@H](C)NC(=O)[C@H](CC(=O)O)NC(=O)[C@@H](C)NC(=O)CCc1ccc(O)cc1)[C@@H](C)CC)[C@@H](C)O)C(C)C)[C@@H](C)CC)C(=O)N[C@@H](CO)C(=O)N[C@@H](CCCNC(=N)N)C(=O)NCCCC(N)=O | GH release | male rat, serum | subcutaneous, dose not given, 15 min | relative to: GHRH(1-29)NH2 | relative potency | 76.5
CC(=O)[O-].O.O.[O-]c1ccc(Br)cc1C=NCCN1CCOCC1.[Zn+2] | superoxide scavenging | – | 240 µM | – | inhibition | 55.5%
Cc1cc(O)c(C=O)c2c1C(=O)Oc1c(CO)c(O)c3c(c1O2)C(O)OC3=O (stereo not drawn) | – | rat, male, streptozotocin-induced diabetes, cauda epididymis | 10 mg/kg, 9 weeks | – | sperm abnormalities | 6.33 ± 0.82%
O=[N+]([O-])c1cc(Br)cc([N+](=O)[O-])c1NS(=O)(=O)c1ccc(Br)cc1 | – | Arabidopsis thaliana Col-0 seeds | 1 µM, with: ABA 1 µM | – | germination rate | > 70%
[2H]C([2H])([2H])C(c1cc2nnc(-c3cc(F)ccc3F)n2nc1OCc1ncnn1C)(C([2H])([2H])[2H])C([2H])([2H])[2H] | – | amygdala-kindled Wistar rats, cortex | oral, 6 mg/kg, 2 h before stimulation | relative to: baseline | afterdischarge duration change | -53%
CCCC[C@H](NC(=O)[C@@H](NC(=O)[C@H](CC(=O)O)NC(=O)[C@H](CCC(N)=O)NC(=O)[C@H](CC(C)C)NC(=O)[C@H](CC(C)C)NC(=O)[C@H](CCCN)NC(=O)[C@H](CCCNC(=N)N)NC(=O)[C@H](C)NC(=O)[C@H](CO)NC(=O)[C@H](CC(C)C)NC(=O)[C@H](CCC(N)=O)NC(=O)[C@H](CC)NC(=O)[C@H](CC(C)C)NC(=O)[C@@H](NC(=O)[C@H](CCCN)NC(=O)[C@H](CCCNC(=N)N)NC(=O)[C@H](Cc1ccc(O)cc1)NC(=O)[C@H](CO)NC(=O)[C@H](CC(N)=O)NC(=O)[C@@H](NC(=O)[C@H](Cc1ccccc1)NC(=O)[C@@H](NC(=O)[C@H](C)NC(=O)[C@H](CC(=O)O)NC(=O)[C@@H](C)NC(=O)[C@H](Cc1ccc(O)cc1)NC)[C@@H](C)CC)[C@@H](C)O)C(C)C)[C@@H](C)CC)C(=O)N[C@@H](CC(=O)O)C(=O)NCCCCNC(=N)N | GH release | rat, male, serum | subcutaneous, 3 µg/kg, 30 min | relative to: reference GHRH agonist JI-38 | relative potency | 1.18
COC(=O)N[C@H]1CC[C@@H](Nc2cc(NCc3ccccc3F)n3ncc(C(C)C)c3n2)CC1 | immunostaining | mice with HCT-116 xenograft | dose not given, 48 h | relative to: vehicle | Ki-67 staining decrease | 1.3 fold
CCCC[C@H](NC(=O)[C@@H](NC(=O)[C@H](CC(=O)O)NC(=O)[C@H](CCC(N)=O)NC(=O)[C@H](CC(C)C)NC(=O)[C@H](CC(C)C)NC(=O)[C@H](CCCN)NC(=O)[C@H](CCCNC(=N)N)NC(=O)[C@H](C)NC(=O)[C@H](CO)NC(=O)[C@H](CC(C)C)NC(=O)[C@H](CCC(N)=O)NC(=O)[C@H](CC)NC(=O)[C@H](CC(C)C)NC(=O)[C@@H](NC(=O)[C@H](CCCN)NC(=O)[C@H](CCCNC(=N)N)NC(=O)[C@H](Cc1ccc(O)cc1)NC(=O)[C@H](CO)NC(=O)[C@H](CCC(N)=O)NC(=O)[C@@H](NC(=O)[C@H](Cc1ccccc1)NC(=O)[C@@H](NC(=O)[C@H](C)NC(=O)[C@H](CC(=O)O)NC(=O)[C@H](C)NC(=O)CCc1ccc(O)cc1)[C@@H](C)CC)[C@@H](C)O)C(C)C)[C@@H](C)CC)C(=O)N[C@@H](CC(=O)O)C(=O)NCCCCNC(=N)N | GH release | male rat, serum | subcutaneous, dose not given, 15 min | relative to: GHRH(1-29)NH2 | relative potency | 63.1
N[C@@H](Cc1ccccc1)C(=O)N1CCC[C@H]1C(=O)NCC(=O)NCC(=O)O | diketopiperazine formation, Arrhenius plot, ESI-MS | 1-propanol | 70, 80, 90 °C, 0.5% acetic acid | – | activation energy | 89 ± 7 kJ/mol
O=C1c2c(cc(O)c(-c3ccc(O)c(O)c3)c2O)OC1Cc1ccc(O)c(O)c1 (stereo not drawn) | ABTS scavenging, absorbance | – | – | – | EC50 | 1100 µM
C=C(c1ncc(C(=O)O)cn1)c1cc2c(cc1C)C(C)(C)CCC2(C)C | RNA sequencing, item: Rbp1 | rat, brain | dose not given, 24 h | relative to: vehicle | log2 fold change | -0.58
CCCC[C@H](NC(=O)[C@@H](NC(=O)[C@H](CC(=O)O)NC(=O)[C@H](CCC(N)=O)NC(=O)[C@H](CC(C)C)NC(=O)[C@H](CC(C)C)NC(=O)[C@H](CCCN)NC(=O)[C@H](CCCNC(=N)N)NC(=O)[C@H](C)NC(=O)[C@H](CO)NC(=O)[C@H](CC(C)C)NC(=O)[C@H](CCC(N)=O)NC(=O)[C@H](CC)NC(=O)[C@H](CC(C)C)NC(=O)[C@@H](NC(=O)[C@H](CCCN)NC(=O)[C@H](CCCNC(=N)N)NC(=O)[C@H](Cc1ccc(O)cc1)NC(=O)[C@H](CO)NC(=O)[C@H](CCC(N)=O)NC(=O)[C@@H](NC(=O)[C@H](Cc1ccccc1)NC(=O)[C@@H](NC(=O)[C@H](C)NC(=O)[C@H](CC(=O)O)NC(=O)[C@@H](C)NC(=O)CCc1ccc(O)cc1)[C@@H](C)CC)[C@@H](C)O)C(C)C)[C@@H](C)CC)C(=O)N[C@@H](CC(=O)O)C(=O)N[C@@H](CCCNC(=N)N)C(=O)NC | GH release | male rat, serum | subcutaneous, dose not given, 15 min | relative to: GHRH(1-29)NH2 | relative potency | 57.2
CCC1CC2C(C)=CC3C(=O)CCCC3C=CC(C)=CC2C(=O)O1 (stereo not drawn) | western blot | PS19 mouse (MAPT P301S), hippocampus | oral, 30 mg/kg, 3 weeks | relative to: vehicle | PSD95 level increase | 7.6%
C[C@@H](O)[C@@H]1NC(=O)[C@H](CCCCN)NC(=O)[C@@H](Cc2ccc(NC(N)=O)cc2)NC(=O)[C@H](Cc2ccc(NC(=O)[C@@H]3CC(=O)NC(=O)N3)cc2)NC(=O)[C@H](NC(=O)[C@H](Cc2ccc(Cl)cc2)NC(=O)CN2CCN(CC(=O)O)CCN(CC(=O)O)CCN(CC(=O)O)CC2)CSSC[C@@H](C(=O)N[C@H](Cc2ccc(O)cc2)C(N)=O)NC1=O [gallium-68 labelled] | PET/CT | human neuroendocrine tumour patients, bone lesions | 60 min | – | SUVmax | 6 ± 3
CSCC[C@H](N)C(=O)N1CCC[C@H]1C(=O)NCC(=O)NCC(=O)O | diketopiperazine formation, Arrhenius plot, ESI-MS | 1-propanol | 70, 80, 90 °C, 0.5% acetic acid | – | activation energy | 94 ± 14 kJ/mol
CCCCC1NC(=O)c2ccccc21 (racemic) | thrombosis | mouse, carrageenan-induced thrombosis | oral, 50 mg/kg daily for 2 days, 24 h after carrageenan | – | black tail length | 3.1 ± 0.9 cm
CC1=C(C2=C(C)C(=O)c3c(cc(O)c(O)c3Cc3ccccc3)C2=O)C(=O)c2cc(O)c(O)c(Cc3ccccc3)c2C1=O (racemic) | spleen shrinkage | B6 Bcl-2-transgenic mice | ip, 10 µmol/kg | relative to: maximum 50% | maximal activity | 77%

Repeated from above:
Compound | assay | system | conditions | scale | endpoint | result
COc1ccc(/C=C/c2cc(O)cc(O)c2)cc1O | – | – | concentration not given | – | initial DPPH scavenging rate | 1.27 µmol/L/s
CC(=N)N(C)c1ccc(C(=O)Nc2ccc(Cl)cc2C(=O)Nc2ccc(Cl)cn2)cc1 | – | human plasma | – | – | concentration doubling prothrombin time | 0.12 ± 0.03 µM
